{"data": "Measured values pooled from the literature", "uncharacterized protein": "uncharacterized protein (Anopheles coluzzii, UniProt A0A6E8VQK1)", "blaNDM-1": "Metallo-beta-lactamase type 2 (blaNDM-1, Klebsiella pneumoniae, UniProt C7C422)", "UDP-3-O-acyl-N-acetylglucosamine deacetylase C40S": "UDP-3-O-acyl-N-acetylglucosamine deacetylase (Pseudomonas aeruginosa, UniProt P47205, C40S)", "note": "Protocols differ between the studies behind these lines. Values joined by “and” are separate records of one study, mostly repeats; a detail may differ. ± marks the error that the study gave."}
{"Structure (SMILES)": "Cn1cc(-c2cccc(N3CCc4c(sc5c4CC(C)(C)C5)C3=O)c2CO)cc(Nc2ccncn2)c1=O", "target": "PDPK1 (Homo sapiens, UniProt O15530)", "assay": "kinase activity, inhibitor, SelectScreen", "setting": "1 µM, with: ATP at apparent Km", "measurement": "inhibition", "result": "14%"}
{"Structure (SMILES)": "[2H]c1c([2H])c([C@]2([2H])CCCN2C(=O)C(C)(C)Oc2ccc3cn[nH]c3c2)c([2H])c([2H])c1C([2H])([2H])[2H]", "target": "PIK3C2G (Homo sapiens, UniProt O75747)", "assay": "KINOMEscan", "setting": "1 µM", "how to read": "reference: DMSO control", "measurement": "remaining binding", "result": "98%"}
{"Structure (SMILES)": "CN(C)CCNc1nc2cc(O)ccc2c2c1C(=O)c1ccccc1-2.Cl.Cl", "target": "Protein transport protein Sec61 subunit alpha isoform 1 (Homo sapiens, UniProt P61619)", "assay": "reporter gene, Dual-Glo luciferase", "system": "HEK293 with CD4 signal peptide-FLuc", "setting": "unit not given", "how to read": "reference: mock", "measurement": "FLuc luminescence", "result": 0.413}
{"Structure (SMILES)": "CC1(C)[C@H](C(=O)O[C@H](C#N)c2cccc(Oc3ccccc3)c2)[C@@H]1C=C(Br)Br", "target": "uncharacterized protein", "assay": "enzyme activity, inhibitor", "system": "Sf9 cell homogenate", "setting": "2.273 µM, 0.1667 h, with: α-naphthyl acetate substrate", "how to read": "reference: no inhibitor", "measurement": "remaining activity", "result": "97.1%"}
{"Structure (SMILES)": "O=C(O)c1cccc(C(O)P(=O)(O)O)n1 (stereo not drawn)", "target": "blaNDM-1", "assay": "inhibitor", "setting": "with: nitrocefin", "measurement": "dissociation half-life", "result": "8.3 ± 1 min"}
{"Structure (SMILES)": "CN1CCN(c2cc(-c3ccncc3)c(-c3ccc4ccccc4c3)nn2)CC1", "target": "XCR1 (Homo sapiens, UniProt P46094)", "assay": "agonist, FLIPR", "setting": "12.5 µM", "measurement": "activation", "result": "-0.7%"}
{"Structure (SMILES)": "O=C(Nc1cccnn1)N1CCC(=Cc2cccc(Oc3ccc(C(F)(F)F)cn3)c2)CC1", "target": "Calumenin (Calu, Rattus norvegicus, UniProt O35783)", "assay": "competitive ABPP with azido-FP probe", "system": "rat brain soluble fraction", "setting": "0.1 µM, unit not given", "how to read": "reference: DMSO", "measurement": "probe labelling", "result": -13.3}
{"Structure (SMILES)": "Nc1ncnc2c1ncn2[C@@H]1O[C@H](COP(=O)(O)OP(=O)(O)OP(=O)(O)O)[C@@H](O)[C@H]1O", "target": "GTP 3',8-cyclase (moaA, Staphylococcus aureus, UniProt P69848)", "assay": "competition with GTP", "measurement": "Hill slope", "result": "1.47 ± 0.164"}
{"Structure (SMILES)": "CC[C@H](C)[C@H](NC(=O)CNC(=O)[C@@H](N)CCCCN)C(=O)N[C@@H](CC(C)C)C(=O)N[C@@H](CCCCN)C(=O)N[C@@H](CC(N)=O)C(=O)N[C@@H](CCCNC(=N)N)C(=O)N[C@@H](C)C(=O)N[C@@H](CCCNC(=N)N)C(=O)N[C@@H](CCCNC(=N)N)C(=O)N[C@@H](CCC(=O)O)C(=O)N[C@@H](CCCNC(=N)N)C(=O)N1CCC[C@H]1C(=O)NCC(=O)N[C@@H](CCCCN)C(=O)N[C@@H](CCCNC(=N)N)C(=O)N[C@@H](CCCCN)C(=O)N[C@@H](CC(N)=O)C(=O)N[C@H](C(=O)N[C@@H](Cc1c[nH]cn1)C(=O)N[C@@H](Cc1c[nH]c2ccccc12)C(=O)N1CCC[C@H]1C(=O)N[C@@H](CCC(=O)O)C(=O)N[C@@H](CCC(=O)O)C(=O)NCC(=O)N[C@@H](CCCCN)C(=O)N[C@@H](CC(C)C)C(=O)N[C@@H](CCCNC(=N)N)C(=O)N[C@@H](CCC(=O)O)C(=O)N[C@@H](Cc1ccc(O)cc1)C(=O)N[C@@H](Cc1ccccc1)C(=O)N[C@@H](Cc1ccc(O)cc1)C(=O)N[C@@H](Cc1ccccc1)C(=O)N[C@@H](CCC(=O)O)C(=O)N[C@@H](CC(C)C)C(=O)N[C@@H](CC(=O)O)C(=O)N[C@@H](CCC(=O)O)C(=O)N[C@@H](C)C(=O)N[C@@H](CCC(=O)O)C(=O)N[C@@H](CCCNC(=N)N)C(=O)N[C@H](C(=O)N[C@@H](CC(N)=O)C(=O)N[C@H](C(=O)O)C(C)C)C(C)C)C(C)C", "target": "PPP1CA (Homo sapiens, UniProt P62136)", "assay": "binding, isothermal titration calorimetry", "setting": "25 °C, PP1α residues 7-330", "measurement": "entropic term −TΔS", "result": "-23.5 ± 0.2 kcal/mol"}
{"Structure (SMILES)": "O=C(O)c1cc[c]([Hg][Cl])cc1", "target": "blaNDM-1", "assay": "inhibitor", "measurement": "Hill coefficient", "result": 1.7}
{"Structure (SMILES)": "COc1cc(Nc2ncc(F)c(Nc3ccc4c(n3)NC(=O)C(C)(C)O4)n2)cc(OC)c1OC", "target": "ANKK1 (Homo sapiens, UniProt Q8NFD2)", "assay": "KINOMEscan", "setting": "10 µM", "measurement": "inhibition", "result": "95%"}
{"Structure (SMILES)": "C[N+](C)(C)CCOC(N)=O", "target": "Chrnd/Chrna1/Chrne (Mus musculus, UniProt P02716+P04756+P20782)", "assay": "end-plate depolarization", "system": "mouse end-plate", "setting": "range 5 to 40 µM, no d-tubocurarine", "measurement": "log-log slope", "result": 1.5}
{"Structure (SMILES)": "O=C(O)COP(=O)(O)O", "target": "TPI1 (Saccharomyces cerevisiae, UniProt P00942, S211A)", "assay": "enzyme activity, competitive inhibitor, GPDH/NADH-coupled", "setting": "pH 4.9, 25 °C, ionic strength 0.1 NaCl, with: glyceraldehyde 3-phosphate substrate", "how to read": "reference: mutant over wild type", "measurement": "Ki ratio", "result": 159}
{"Structure (SMILES)": "O=C(Nc1cnccc1Cl)N1CCN(Cc2ccc3c(c2)OC(F)(F)O3)CC1", "target": "MTNR1A (Homo sapiens, UniProt P48039)", "assay": "radioligand binding", "setting": "concentration not given", "measurement": "inhibition", "result": "3% and 1%"}
{"Structure (SMILES)": "O=P(O)(O)OC[C@H]1C[C@](O)(CO)[C@@H](O)[C@H](O)[C@@H]1O", "target": "2-epi-valiolone synthase (Actinosynnema mirum, UniProt C6WFL3)", "assay": "phosphate release", "setting": "150 µM", "measurement": "apparent Vmax", "result": "1.9 ± 0.3 µM/min"}
{"Structure (SMILES)": "CO[C@H]1C[C@H](O[C@H]2[C@H](C)O[C@@H](O[C@@H]3/C(C)=C/C[C@@H]4C[C@@H](C[C@]5(C=C[C@H](C)[C@@H](C6CCCCC6)O5)O4)OC(=O)[C@@H]4C=C(C)[C@@H](O)[C@H]5OC/C(=C\\C=C\\[C@@H]3C)[C@]54O)C[C@@H]2OC)O[C@@H](C)[C@@H]1O", "target": "Nuclear receptor subfamily 1 group I member 3 (Homo sapiens, UniProt Q14994)", "assay": "coactivator recruitment", "setting": "concentration not given, with: 0.1 µM CITCO", "measurement": "efficacy", "result": "1.84 ± 0.54%"}
{"Structure (SMILES)": "CCCCCCCCCCCCCC[N+](C)(C)C", "target": "Sodium channel protein type 4 alpha, BTX-activated (Oryctolagus cuniculus, UniProt G1SLL9)", "measurement": "off rate", "result": "41 s⁻¹"}
{"Structure (SMILES)": "COc1ccc(N2C(=O)N(c3c(C)cccc3Cl)Cc3cnc(Nc4ccc(C5CCN(C)CC5)cc4OC)nc32)nc1", "target": "PRKD1 (Homo sapiens, UniProt Q15139)", "assay": "kinase activity", "setting": "0.5 µM", "measurement": "inhibition", "result": "27%"}
{"Structure (SMILES)": "CC(C)C[C@H](NC(=O)[C@@H](NC(=O)N[C@@H](Cc1ccccc1)C(=O)O)[C@@H]1CCN=C(N)N1)C(=O)N[C@H](C=O)Cc1ccccc1", "target": "Cathepsin G (CTSG, Homo sapiens, UniProt P08311)", "measurement": "Hill slope", "result": -1.14}
{"Structure (SMILES)": "CCOC(=O)CC(SP(=O)(OC)OC)C(=O)OCC (stereo not drawn)", "target": "uncharacterized protein", "assay": "enzyme activity, inhibitor", "system": "Sf9 cell homogenate", "setting": "0.0004587 µM, 0.1667 h, with: α-naphthyl acetate substrate", "how to read": "reference: no inhibitor", "measurement": "remaining activity", "result": "98.3%"}
{"Structure (SMILES)": "Nc1ncnc2c1ncn2[C@H]1C[C@H](O)[C@@H](COP(=O)(O)OP(=O)(O)OP(=O)(O)O)O1", "target": "Gag-Pol polyprotein, reverse transcriptase (gag-pol, Human immunodeficiency virus type 1 group M subtype B, UniProt P04585)", "assay": "single nucleotide extension", "setting": "matched T:A primer-template", "measurement": "kcat", "result": "0.115 ± 0.00483 s⁻¹"}
{"Structure (SMILES)": "C[C@@H](O)[C@H](NC(=O)c1ccc(C#Cc2ccccc2)cc1)C(=O)NO", "target": "UDP-3-O-acyl-N-acetylglucosamine deacetylase C40S", "assay": "isothermal titration calorimetry", "setting": "concentration not given, 298 K, untagged protein, averaged", "measurement": "entropy change (ΔS)", "result": "0.0171 kcal/mol/K"}
{"Structure (SMILES)": "CN(C(=O)n1cnc(-c2ccc[n+]([O-])c2)c1)C1CCCCC1", "target": "MAOA (Homo sapiens, UniProt P21397)", "assay": "enzyme activity, inhibitor", "setting": "50 µM, human, with: kynuramine substrate", "measurement": "inhibition", "result": "3%"}
{"Structure (SMILES)": "Nc1ncc(-c2nc(N3CCOCC3)nc(N3CCOCC3)n2)c(C(F)F)n1", "target": "CDK15 (Homo sapiens, UniProt Q96Q40)", "assay": "KINOMEscan", "setting": "10 µM", "measurement": "remaining binding", "result": "94%"}
{"Structure (SMILES)": "O=C(c1ccc(Cl)cc1)N1CCN2C(=O)N(OC(=O)N3CCOc4ccccc43)C(=O)C2C1 (stereo not drawn)", "target": "Acyl-coenzyme A thioesterase 2, mitochondrial (ACOT2, Homo sapiens, UniProt P49753)", "assay": "enzyme activity, inhibitor, MS-based ABPP", "system": "SW-620 in situ", "setting": "10 µM, 2 h, 37 °C", "how to read": "reference: compound over DMSO, lower = stronger inhibition", "measurement": "median ratio", "result": 1.09}
{"Structure (SMILES)": "O=c1c2ccccc2oc2cc(OCCCCc3ccccc3)ccc12", "target": "ache (Electrophorus electricus, UniProt O42275)", "assay": "enzyme activity", "setting": "0.73 µM, with: substrate 0.86 mM", "how to read": "higher = faster reaction", "measurement": "reaction velocity", "result": "0.001 a.u."}
{"Structure (SMILES)": "NC[C@H](NC(=O)c1ccc(-c2ccc(Br)cc2)cc1)C(=O)NO", "target": "UDP-3-O-acyl-N-acetylglucosamine deacetylase C40S", "assay": "ITC", "setting": "concentration not given, 298 K", "measurement": "-TΔS of binding", "result": "-10.2 kcal/mol"}
{"Structure (SMILES)": "COc1ccc(-c2ccc(CNC3(C(=O)NO)CCS(=O)(=O)CC3)cc2F)cc1", "target": "UDP-3-O-acyl-N-acetylglucosamine deacetylase (Pseudomonas aeruginosa, UniProt P47205)", "assay": "fluorescence", "setting": "37 °C", "measurement": "residence time", "result": "~30 min"}
{"Structure (SMILES)": "N[C@@H](Cc1ccc(O)c(I)c1)C(=O)O", "target": "Iodotyrosine deiodinase (Haliscomenobacter hydrossis, UniProt F4KU78, R38E)", "assay": "deiodination", "setting": "pH 7.4, 25 °C, with: dithionite", "measurement": "kcat", "result": "< 0.03 s⁻¹"}
{"Structure (SMILES)": "c1ccc2c(c1)cc1ccc3cccc4ccc2c1c34", "target": "Ahr (Rattus norvegicus, UniProt P41738)", "assay": "agonist, CALUX reporter", "system": "H4IIE", "setting": "0.126 µg/mL", "measurement": "agonist response", "result": "100%"}
{"Structure (SMILES)": "CC[C@H](C)[C@H](NC(=O)[C@@H](NC(=O)[C@H](CC(C)C)NC(=O)[C@H](CC(N)=O)NC(=O)[C@H](CC(=O)O)NC(=O)[C@H](CCC(=O)O)NC(=O)[C@@H](NC(=O)[C@@H](N)CCCNC(=N)N)[C@@H](C)CC)C(C)C)C(=O)N[C@H](C(=O)N[C@@H](CCCNC(=N)N)C(=O)O)[C@@H](C)CC", "target": "Epithelial sodium channel subunit alpha (Homo sapiens, UniProt P37088)", "assay": "binding, bio-layer interferometry", "measurement": "koff", "result": "0.158 s⁻¹"}
{"Structure (SMILES)": "Cc1nn(C)cc1-c1nc2c(N3CCN(Cc4ccc(Cl)cc4)CC3)c(Cl)cnc2[nH]1", "target": "PKMYT1 (Homo sapiens, UniProt Q99640)", "assay": "KINOMEscan", "setting": "1 µM", "how to read": "reference: DMSO control", "measurement": "remaining binding", "result": "95%"}
{"Structure (SMILES)": "C[C@H]1CN(c2n[nH]c3nc(N[C@H]4CC[C@H](NS(=O)(=O)CCC(F)(F)F)CC4)ncc23)CCO1", "target": "CHEK1 (Homo sapiens, UniProt O14757)", "assay": "inhibitor, Kinobeads competition profiling", "setting": "0.032 µM", "how to read": "reference: vehicle", "measurement": "relative abundance", "result": 1.03}
